Published values gathered from unrelated publications.
Compare with care: the assays were run in different laboratories. Values joined by “and” are separate records of one study, mostly repeats; a detail may differ.
Target: Activin receptor type-1B (ACVR1B, Homo sapiens, UniProt P36896)

CCN1CCN(Cc2ccc(C(=O)Nc3ccc(C)c(NCc4cnc5[nH]ccc5c4OC)c3)cc2C(F)(F)F)CC1 — remaining binding (binding, competition with immobilised ligand; 1 µM): 100%
Cc1ccc(-c2c(/C=C(\C#N)C(=O)NC(C)C)n(CCCO)c3ncnc(N)c23)cc1 — remaining binding (cell-free assay, competition with immobilised ligand; 1 µM): 72%
COc1cc(Nc2nccc(-c3cnn4nc(OC)ccc34)n2)cc(C(F)(F)F)c1 — remaining binding (binding, competition with immobilised ligand; 1 µM): 100%
C=CC(=O)N1Cc2nc(-c3cc(-c4cc(Cl)cnc4Cl)c(F)cc3F)n(-c3ccncn3)c2C1 — inhibition (cell-free assay; 1 µM): -3.1%
O=C=[N][Ru-4]123([n]4c5ccc(O)cc5c5c6c(c7cc(F)c[n+]1c7c54)C(=O)NC6=O)[S+]1CC[S+]2CC[S+]3CC1 (stereo not shown) — remaining activity (enzyme activity; 100 nM, human enzyme, with: 10 µM ATP; baseline: untreated): 123%
CNC(=O)C1CCN(c2cc(C)c(F)cc2NC(=O)c2ccc(-c3cc(O)ccc3C)c(C)c2)CC1 — remaining binding (binding, competition with immobilised ligand; 1 µM): 99%
N[C@H]1CC[C@H](Nc2nccc(-c3cccnc3Oc3ccc(NC(=O)NC4CC4)c4ccccc34)n2)CC1 — log2 LFQ intensity (kinobead competition pulldown; HEK293/HCT116 lysate mixture; 10 µM, 1 h, 4 °C; lower = stronger competition): 23.6 and 23.4 and 23.5
Cc1cnc2nc1Nc1cccc(c1)COC/C=C/COCc1cc(ccc1OCCN1CCOCC1)N2 — remaining binding (binding; 0.1 µM): 98%
NC(=O)[C@@H](O)C[C@H]1CCc2sc3ncnc(O[C@H]4CC[C@H](N5CCOCC5)CC4)c3c21 — inhibition (enzyme activity, inhibitor; 10 µM): 0%
C=C1CCCCCCCCCC(CO)C1=O (stereo not shown) — remaining binding (cell-free assay, competition with immobilised ligand; 10 µM): 96%
Nc1ncc2c(n1)-c1c([nH]c3ccc(C4=CCOCC4)cc13)CCC2 — remaining binding (binding, competition with immobilised ligand; 1 µM): 89%
COc1ccc(NC(=O)Nc2ccc3c(c2)C(=O)N(C(C)CO)CC(C)C(CN(C)Cc2ccc4c(c2)OCO4)O3)cc1 (stereo not shown) — remaining activity (kinase activity, KinaseProfiler; 0.03 µM, species human; baseline: control): 94%
CN1CC[C@@H](COc2cnc(C#N)cc2-c2ccn3nc(NC(=O)C4CC4)cc3c2)C1 — inhibition (inhibitor, KinaseProfiler panel; 1 µM): 18%
CN1CCN(Cc2ccc(NC(=O)c3cccc(C#Cc4cnc(N)c5ncccc45)c3)cc2C(F)(F)F)CC1 — remaining binding (cell-free assay, competition with immobilised ligand; 50 nM): 100%
O=C(Cc1ccc(OCc2ccccc2)cc1)NC1(C(=O)O)CCN(C(=O)c2ccc(-c3cccc(Cl)c3)cc2)CC1 — activity vs control (enzyme activity, inhibitor; 10 µM): 91%
CN1CCN(Cc2ccc(-c3ccc(CO[C@H]4CCC[C@@H]4NC(=O)c4cc(-c5cnn(C)c5)cnc4N)cc3)cc2)CC1 — inhibition (enzyme activity, inhibitor; 0.1 µM): 13%

A few entries again:
CNC(=O)C1CCN(c2cc(C)c(F)cc2NC(=O)c2ccc(-c3cc(O)ccc3C)c(C)c2)CC1 — remaining binding (binding, competition with immobilised ligand; 1 µM): 99%
